Measured values from different studies.
± gives the spread as reported.
Trypanothione synthetase: Trypanothione synthetase (Trypanosoma brucei, UniProt Q586P2)
TACR1: Substance-P receptor (TACR1, Homo sapiens, UniProt P25103)
HCK Q523E/Q524E/Q525I SH2: Tyrosine-protein kinase HCK, SH2 (HCK, Homo sapiens, UniProt P08631, Q523E/Q524E/Q525I)
SRC SH3-SH2-kinase domain: Proto-oncogene tyrosine-protein kinase Src, SH3-SH2-kinase domain (SRC, Gallus gallus, UniProt P00523)
ACE: Angiotensin-converting enzyme (ACE, Homo sapiens, UniProt P12821)
Genome polyprotein protease: Genome polyprotein, protease (Hepatitis C virus genotype 1b, UniProt O92972)

`CCC(C)NC(=O)Cn1nc(C(F)(F)F)c2c1CCCC2` (stereo not shown) has an IC50 of 12000 nM (Trypanothione synthetase; enzyme activity, inhibitor).
With `Cc1nc(Nc2ncc(C(=O)Nc3c(C)cccc3Cl)s2)cc(N2CCN(CCOC(=O)[C@@H](N)CCCNC(=N)N)CC2)n1` the IC50 was less than 0.45 nM (Tyrosine-protein kinase ABL1 (ABL1, Homo sapiens, UniProt P00519)).
`CCC(NC(=O)C(CC(C)C)NC(=O)CCc1ccncc1)C(=O)C(=O)NCc1cc(OC)cc(OC)c1` (stereo not shown) has an IC50 of 214 nM (Calpain-2 catalytic subunit (Capn2, Mus musculus, UniProt O08529); enzyme activity, inhibitor; mouse pons-cerebellum membranes; together with: calcium 2 mM).
`CC(C)(C)C(=O)Cn1nnc(-c2cccc(C(F)(F)F)c2)n1` gave an IC50 of 3500 nM (Trypanothione synthetase; enzyme activity, inhibitor).
The IC50 of `Cc1ccccc1-c1cc(N2CCN(C(=O)CCC(=O)O)CC2)ccc1N(C)C(=O)C(C)(C)c1cc(C(F)(F)F)cc(C(F)(F)F)c1` is reported as 692 nM (TACR1; nuclear ERK activity, antagonist, FRET biosensor; HEK293T; 30 to 90 min preincubation, together with: substance P 10 nM).
For `O=[N+]([O-])c1ccc(Cn2cc(Cn3cc(CO)nn3)nn2)cc1`, the IC50 was 1110 ± 78 nM (Pleckstrin homology domain-containing family A member 1, PH domain (Homo sapiens, UniProt Q9HB21); PI(3,4)P2 binding, competitive SPR; PH domain 500 nM).
For `C[C@@H](O)[C@@H]1NC(=O)[C@H](CCCCN)NC(=O)[C@@H](Cc2c[nH]c3ccccc23)NC(=O)[C@H](Cc2ccc(O)cc2)NC(=O)[C@H](NC(=O)[C@@H](N)Cc2ccc(Cl)cc2)CSSC[C@@H](C(=O)N[C@@H](Cc2ccc3ccccc3c2)C(N)=O)NC1=O`, the IC50 was greater than 1000 nM (Somatostatin receptor type 1 (SSTR1, Homo sapiens, UniProt P30872); ligand displacement, radioligand; cell membranes).
With `S=c1[nH]nc(Cn2nnc3ccccc32)n1/N=C/c1cccs1` the IC50 was 263000 nM (Xanthine dehydrogenase/oxidase (XDH, Bos taurus, UniProt P80457); enzyme activity, inhibitor).
`O=C1Nc2ccc(-c3ccc(C(=O)N4CCOCC4)cc3)cc2/C1=C/c1ccc(N2CCNCC2)cc1` has an IC50 of 4510 nM (Fibroblast growth factor receptor 3 (FGFR3, Homo sapiens, UniProt P22607); enzyme activity, inhibitor).
`N#Cc1c(-c2cccs2)cc(-c2cccs2)nc1SCc1ccc(C(=O)O)cc1` gave an IC50 of 12700 nM (Histone acetyltransferase KAT2A (KAT2A, Homo sapiens, UniProt Q92830); enzyme activity, inhibitor, radiometric).
For `Nc1ncnc2c1c(-c1ccc(Oc3ccccc3)cc1)nn2C1CCCC1`, the IC50 was 27 nM (HCK Q523E/Q524E/Q525I SH2; enzyme activity, inhibitor).
`CN1C(=O)[C@H](CC2CCCCC2)NC(=O)/C=C\C(=O)N[C@H](C(=O)O)CCNC(=O)[C@H](CCCNC(=O)c2cnccn2)NC(=O)[C@@H]1Cc1ccc(F)cc1` gave an IC50 of greater than 5000 nM (SRC SH3-SH2-kinase domain; enzyme activity, inhibitor, Z'-LYTE FRET; Src residues 83-533, together with: 50 µM ATP).
The IC50 of `O=S(=O)(Nc1cscn1)c1c(F)cc(NCc2c(F)ccc(F)c2CN2CCC2)cc1F` is reported as 33.4 nM (Sodium channel protein type 8 subunit alpha (SCN8A, Homo sapiens, UniProt Q9UQD0); use-dependent ion current block, inhibitor, patch clamp; held at V0.5, pulse 500).
For `CCOC(=O)N1CCN(Cc2nc3c(c(=O)n(C)c(=O)n3C)n2CCC(C)C)CC1`, the IC50 was greater than 57000 nM (15-hydroxyprostaglandin dehydrogenase [NAD(+)] (HPGD, Homo sapiens, UniProt P15428)).
`NC(=O)[C@@H]1CCCNC(=O)[C@H](Cc2ccc([N+](=O)[O-])cc2)NC(=O)[C@H](Cc2ccccc2)NC(=O)[C@H](Cc2cccc3ccccc23)NC(=O)/C=C/C(=O)N1` gave an IC50 of 370 ± 30 nM (SRC SH3-SH2-kinase domain; enzyme activity, inhibitor, Z'-LYTE FRET; Src residues 83-533, together with: 50 µM ATP).
With `O=S(=O)(NCc1csc(-c2ccccc2)n1)c1ccc2ccccc2c1` the IC50 was 2400 nM (Trypanothione synthetase; enzyme activity, inhibitor).
`COc1ccc2nc3cc(Cl)ccc3c(NCCCCc3c(N)nc(N)nc3N)c2c1` has an IC50 of 37000 ± 11000 nM (Muscleblind-like protein 1, with (CUG)12 RNA (Homo sapiens, UniProt Q9NR56); MBNL1-RNA binding, gel mobility shift; no tRNA, together with: (CUG)12 RNA, 1000 nM MBNL1).
`CC(C)(C)c1ccc(C[C@@H]2NC(=O)[C@H](Cc3ccccc3)NC(=O)[C@H](CC3CCCCC3)NC(=O)/C=C/C(=O)N[C@H](C(N)=O)CCCNC2=O)cc1` has an IC50 of greater than 10000 nM (SRC SH3-SH2-kinase domain; enzyme activity, inhibitor, Z'-LYTE FRET; Src residues 83-533, together with: 50 µM ATP).
`CC(C)=CCN=C(N)NCCC[C@@H](NC(=O)CCCc1ccc(O)cc1)C(=O)N[C@@H](Cc1ccccc1)C(O)CC(=O)N[C@@H](Cc1ccc(O)cc1)C(=O)O` (stereo in doubt) has an IC50 of greater than 100000 nM (ACE; enzyme activity, inhibitor).
With `N#C/C(=C\c1ccc(O)c(O)c1)C(=O)c1ccc(O)c(O)c1` the IC50 was greater than 100000 nM (Genome polyprotein, NS3 helicase domain (Hepatitis C virus genotype 1b, UniProt Q9WMX2); helicase activity, molecular beacon helicase; together with: DNA substrate).
`Cc1ccccc1-c1cc(N2CCN(Cc3ccccc3)CC2)ccc1N(C)C(=O)C(C)(C)c1cc(C(F)(F)F)cc(C(F)(F)F)c1` has an IC50 of 91 nM (TACR1; IP1 accumulation, antagonist; 90 min, together with: substance P 10 nM).
`COc1c(O)cc(-c2oc3cc(O)cc(O)c3c(=O)c2O[C@@H]2O[C@@H](C)[C@H](O)[C@@H](O)[C@H]2O)cc1O`: IC50 “negative” (alpha-glucosidase Saccharomyces cerevisiae; inhibitor).
For `CC(C)C[C@H](NC(=O)[C@H](CO)NC(=O)[C@@H](NC(=O)[C@@H]1CCCN1C(=O)[C@H](CCCNC(=N)N)NC(=O)[C@H](CCC(=O)O)NC(=O)[C@H](CCCCN)NC(=O)[C@H](CCCNC(=N)N)NC(=O)[C@H](CCCNC(=N)N)NC(=O)CNC(=O)[C@H](C)NC(=O)[C@@H](N)Cc1ccc(O)cc1)[C@@H](C)O)C(=O)N[C@@H](CC(N)=O)C(=O)N[C@H](C(=O)N[C@@H](Cc1ccccc1)C(=O)N1CCC[C@H]1C(=O)O)C(C)C`, the IC50 was greater than 100000 nM (Mitogen-activated protein kinase 14 (Rattus norvegicus, UniProt P70618); enzyme activity, inhibitor, fluorescence).
`O=C1/C=C\C(=O)N[C@@H](CC2CCCCC2)C(=O)N[C@@H](Cc2ccccc2)C(=O)N[C@@H](CCCNC(=O)c2cnccn2)C(=O)NCC[C@@H](C(=O)O)N1` has an IC50 of no more than 4 nM (SRC SH3-SH2-kinase domain; enzyme activity, inhibitor, Z'-LYTE FRET; Src residues 83-533, together with: 50 µM ATP).
`COC(=O)C[C@H](NC(=O)[C@H](C)NC(=O)[C@@H](NC(=O)OCc1ccccc1)C(C)C)C(=O)CF` gave an IC50 of 24 nM (Caspase-1 (CASP1, Homo sapiens, UniProt P29466); enzyme activity, inhibitor, fluorescence).
The IC50 of `O=C(Cn1cc([N+](=O)[O-])cc(Br)c1=O)c1cc2cc(Cl)ccc2[nH]1` is reported as 2840 ± 320 nM (DNA repair protein RAD52 homolog (RAD52, Homo sapiens, UniProt P43351); DNA binding, inhibitor, FRET; 25 °C, together with: Cy3-dT30-Cy5 1 nM).
The IC50 of `N[C@@H](Cc1ccc(O)c(-c2cc(C[C@H](N)C(=O)O)ccc2O)c1)C(=O)O` is reported as 11 nM (Thyroid hormone receptor beta (THRB, Homo sapiens, UniProt P10828); ligand displacement, radioligand; lysate).
`NS(=O)(=O)c1ccc(N2N=C(C(F)(F)F)CC2c2ccc(F)cc2F)cc1` (stereo not shown) gave an IC50 of 11700 nM (Cyclooxygenase-2 (Canis lupus familiaris, UniProt Q8SPQ9); PGE2 formation, inhibitor; dog whole blood; 24 h, 37 °C, together with: LPS).
With `O=c1c2cc3ccccc3cc2[nH]c(=S)n1Cc1ccccc1` the IC50 was 36800 nM (Genome polyprotein protease; enzyme activity, inhibitor, FRET).
With `CCc1ccc(CCNC(=O)c2c(O)c(O)cc3c(O)c(-c4c(C)cc5c(C(=O)NCCc6ccc(CC)cc6)c(O)c(O)cc5c4O)c(C)cc23)cc1` the IC50 was roughly 1000 nM (Bcl-2-like protein 10 (Homo sapiens, UniProt Q9HD36); binding, inhibitor, fluorescence polarization; together with: fluorescent BH3 Bid peptide).
For `CC(C)n1nc(-c2ccc3cc(OCc4cccc(Cl)c4)ccc3c2)c2c(N)ncnc21`, the IC50 was 63 nM (HCK Q523E/Q524E/Q525I SH2; enzyme activity, inhibitor).
The IC50 of `O=c1c2cc3ccccc3cc2[nH]c(=S)n1CCc1ccccc1` is reported as 31900 nM (Genome polyprotein protease; enzyme activity, inhibitor, FRET).
`CC(=O)c1ccc2c(c1)sc1nc(=O)c(C#N)cn12` gave an IC50 of 3170 nM (DNA gyrase (gyrA/gyrB, Escherichia coli, UniProt P0AES4+P0AES6); enzyme activity, inhibitor).
`CC(=N)N(C)c1ccc(C(=O)Nc2ccc(Cl)cc2C(=O)Nc2ccc(Cl)cn2)cc1` gave an IC50 of 0.3 nM (Coagulation factor X (F10, Homo sapiens, UniProt P00742); enzyme activity, inhibitor, absorbance).
With `CCCC1=C(CO)C(=O)CC(O)C1` (stereo not shown) the IC50 was greater than 72400 nM (Tyrosine-protein phosphatase non-receptor type 6 (PTPN6, Homo sapiens, UniProt P29350); enzyme activity, inhibitor, absorbance).
`CN(C(=O)c1ccn2ncc(-c3ccc(C(N)=O)cc3)c2c1)c1ccc(C#N)cn1` has an IC50 of greater than 30000 nM (Alpha-2B adrenergic receptor (ADRA2B, Homo sapiens, UniProt P18089); ligand displacement).
`CC(C)C(O)C(NC(=O)[C@H](Cc1ccc(O)cc1)NC(=O)C(Cc1ccc(O)cc1)[N+](C)(C)C)C(=O)N[C@@H](C)C(=O)O` (stereo partly shown) gave an IC50 of greater than 10000 nM (ACE; enzyme activity, inhibitor).

Repeated from above:
`CC(C)(C)c1ccc(C[C@@H]2NC(=O)[C@H](Cc3ccccc3)NC(=O)[C@H](CC3CCCCC3)NC(=O)/C=C/C(=O)N[C@H](C(N)=O)CCCNC2=O)cc1` has an IC50 of greater than 10000 nM (SRC SH3-SH2-kinase domain; enzyme activity, inhibitor, Z'-LYTE FRET; Src residues 83-533, together with: 50 µM ATP).
For `Nc1ncnc2c1c(-c1ccc(Oc3ccccc3)cc1)nn2C1CCCC1`, the IC50 was 27 nM (HCK Q523E/Q524E/Q525I SH2; enzyme activity, inhibitor).
`CC(C)(C)C(=O)Cn1nnc(-c2cccc(C(F)(F)F)c2)n1` gave an IC50 of 3500 nM (Trypanothione synthetase; enzyme activity, inhibitor).
For `O=[N+]([O-])c1ccc(Cn2cc(Cn3cc(CO)nn3)nn2)cc1`, the IC50 was 1110 ± 78 nM (Pleckstrin homology domain-containing family A member 1, PH domain (Homo sapiens, UniProt Q9HB21); PI(3,4)P2 binding, competitive SPR; PH domain 500 nM).
With `CCc1ccc(CCNC(=O)c2c(O)c(O)cc3c(O)c(-c4c(C)cc5c(C(=O)NCCc6ccc(CC)cc6)c(O)c(O)cc5c4O)c(C)cc23)cc1` the IC50 was roughly 1000 nM (Bcl-2-like protein 10 (Homo sapiens, UniProt Q9HD36); binding, inhibitor, fluorescence polarization; together with: fluorescent BH3 Bid peptide).
